Measured values gathered from unrelated publications.
Numbers after ± are the reported error.

CC(C)(C)C(=O)Nc1ccc2nc(CN3CCC(N(CC(=O)N4CCOCC4)C[C@H]4O[C@@H](n5cnc6c(N)ncnc65)[C@H](O)[C@@H]4O)CC3)[nH]c2c1 — H3K79me2 level ratio (human DOT1L R231Q; inhibitor, western blot, refers to: H3K79me2 over histone H3; H460 DOT1L R231Q; concentration not given; relative to: cpd over SGC0946): 1.14
OC[C@H]1O[C@@H](Oc2cc3c(O)cc(O)cc3[o+]c2-c2ccc(O)c(O)c2)[C@H](O[C@@H]2OC[C@@H](O)[C@H](O)[C@H]2O)[C@@H](O)[C@@H]1O — CD value (NAD(P)H quinone oxidoreductase, mouse; enzyme induction, inducer; Hepa-1c1c7; concentration doubling activity): > 20 µM
Cn1c(=O)oc2ccc(-c3ccc(C[C@@H](C#N)NC(=O)[C@@H]4CNCCCO4)cc3)cc21 — steady-state inhibition (neutrophil elastase; enzyme activity, inhibitor; human, whole blood; oral, 25 mg once daily, with: zymosan): 49%
GKKVITAFVEGLK — relative concentration for IL-2 production (3.L2 T cell receptor; agonist; peptide, 3.L2.12 T cell hybridoma; concentration not given; relative to: over Hb(64-76) peptide): 10 to 100 fold
CC(C)(C)C(=O)Nc1ccc2nc(CN3CCC(N(CC(=O)N4CCC(O)CC4)C[C@H]4O[C@@H](n5cnc6c(N)ncnc65)[C@H](O)[C@@H]4O)CC3)[nH]c2c1 — H3K79me2 level ratio (human DOT1L R231Q; inhibitor, western blot, refers to: H3K79me2 over histone H3; H460 DOT1L R231Q; concentration not given; relative to: cpd over SGC0946): 0.747
human clusterin — average size of aggregated species (amyloid beta 1-40; TIRF microscopy; 2 µM, 24 h, with: 2 µM amyloid beta 1-40, added at 4 h): 780 ± 60 nm
CC(C)(N)C(=O)O — Km (system A amino acid transporter, mouse; Na+-dependent uptake, substrate; Ehrlich ascites cells; 1 min, pH 7.4, with: 107 mEq/L Na+): 2000 µM
O=Cc1c(O)cc(O)cc1O[C@@H]1O[C@H](CO)[C@@H](O)[C@H](O)[C@H]1O — CD value (NAD(P)H quinone oxidoreductase, mouse; enzyme induction, inducer; Hepa-1c1c7; concentration doubling activity): > 20 µM
Cc1ncsc1-c1ccc(CNC(=O)[C@@H]2C[C@@H](O)CN2C(=O)[C@@H](NC(=O)CCCNC(=O)c2ccc(-c3cnc(NCc4ccco4)n4cnnc34)cc2)C(C)(C)C)cc1 — DC50 (EZH2, human; degrader, western blot; HeLa; 24 h): 0.3 ± 0.19 µM
CC(=O)OC(CC(=O)[O-])C[N+](C)(C)C (stereo not drawn) — EC50 (rhodopsin wild type-Rluc fusion; reporter gene; HEK293; 24 h): 1 µM
CC(C)NC(=O)CCN(C[C@H]1O[C@@H](n2cnc3c(N)ncnc32)[C@H](O)[C@@H]1O)C1CCN(Cc2nc3cc(NC(=O)C(C)(C)C)ccc3[nH]2)CC1 — H3K79me2 level ratio (human DOT1L R231Q; inhibitor, western blot, refers to: H3K79me2 over histone H3; H460 DOT1L R231Q; concentration not given; relative to: cpd over SGC0946): 1.29
O=c1c(O[C@@H]2O[C@H](CO)[C@H](O)[C@H](O)[C@H]2O)c(-c2ccc(O)c(O)c2)oc2cc(O)cc(O)c12 — CD value (NAD(P)H quinone oxidoreductase, mouse; enzyme induction, inducer; Hepa-1c1c7; concentration doubling activity): 19.2 ± 2.8 µM
O=C(O)c1ccc(Cl)c(N2C(=O)c3ccc4c(=O)n5c6ccc([N+](=O)[O-])cc6nc5c5ccc(c3c45)C2=O)c1 — NGF-induced TrkA phosphorylation (TrkA; western blot; PC-12; 1 µM, 15 min, with: NGF 50 pM): decreased
CN(C)C(=O)CN(C[C@H]1O[C@@H](n2cnc3c(N)ncnc32)[C@H](O)[C@@H]1O)C1CC2CN(C(=O)Nc3ccc(NC(=O)C(C)(C)C)cc3)CC2C1 (stereo partly drawn) — H3K79me2 level ratio (human DOT1L R231Q; inhibitor, western blot, refers to: H3K79me2 over histone H3; H460 DOT1L R231Q; concentration not given; relative to: cpd over SGC0946): 1.78
CCCn1cnc2c(NCc3ccc(C)s3)nc(N[C@H](CC)CO)nc21 — EC50 (Cav2.1 calcium channel; tail current integral, whole-cell patch clamp; HEK293 transfected with Cav2.1): 7.14 µM
O=c1ccc2ccccc2o1 — Hill coefficient (CYP2A6 human; 7-hydroxylation, substrate; human liver microsomes; CYP2A6 added 216 pmol/mg, ratio 0.5): 1.16 ± 0.28
OC[C@H]1O[C@@H](Oc2cc3c(O)cc(O)cc3[o+]c2-c2cc(O)c(O)c(O)c2)[C@H](O)[C@@H](O)[C@@H]1O.[Cl-] — CD value (NAD(P)H quinone oxidoreductase, mouse; enzyme induction, inducer; Hepa-1c1c7; concentration doubling activity): > 20 µM
CC(C)N(CCC1CC2CN(C(=O)Nc3ccc(C(C)(C)C)cc3)CC2C1)C[C@H]1O[C@@H](n2cnc3c(N)ncnc32)[C@H](O)[C@@H]1O (stereo partly drawn) — H3K79me2 level ratio (human DOT1L R231Q; inhibitor, western blot, refers to: H3K79me2 over histone H3; H460 DOT1L R231Q; concentration not given; relative to: cpd over SGC0946): 3.12
C[C@H](NC(=O)[C@H](CC(N)=O)NC(=O)[C@H](Cc1ccc(O)cc1)NC(=O)[C@H](CCC(=O)O)NC(=O)[C@H](CS)NC(=O)[C@H](CC(=O)O)NC(=O)[C@H](C)N1C/C=C/CCC(=O)N[C@@H]([C@@H](C)O)C(=O)N[C@@H](C)C1=O)C(N)=O — inhibition (HIF-1α; VEGF transcription, qRT-PCR, refers to: VEGF mRNA; HeLa; 1 µM, 12 h, with: deferoxamine-mimicked hypoxia): 0 ± 3%
COc1cc(C=O)ccc1O — lowest inhibitory concentration (UGT (rat); p-NP glucuronidation, inhibitor; rat liver microsomes): ≥ 0.01 µM
CN1CC[C@H](c2c(O)cc(O)c3c(=O)cc(-c4ccccc4Cl)oc23)[C@H](O)C1 — Pearson correlation coefficient (CHERP and Ser2-phosphorylated RNA polymerase II, human; colocalization, immunofluorescence; HEK293 transfected with HA-CHERP; 2 µM, 3 h): 0.22
ARYLH-OH (C-free acid) — conversion to cyclic peptide (cytochrome P450 Blt (Micromonospora sp. MW-13); substrate, LC-MS; peptide; overnight, 30 °C, P450 0.5 µM, with: NADH 2 mM): 24%
CCCN(CCC)S(=O)(=O)c1ccc(C(=O)O)cc1 — 6-CF AUC(0-60 min) (rat renal Oats; rat, plasma; iv, 100 mg/kg, with: 6-CF 1 mg/kg iv): 164 ± 10.4 µg·min/mL
GIGKFLHSAKKFGKAFVGEIMNS-NH2 (C-amide) — CD slope at 272 nm (15 bp duplex DNA; DNA binding, near-UV circular dichroism; peptide; room temperature, with: 1.66 µM DNA, peptide titrated): -0.066 ± 0.024
CCN1CCN(CCCN(C[C@H]2O[C@@H](n3cnc4c(N)ncnc43)[C@H](O)[C@@H]2O)C2CCN(Cc3nc4cc(NC(=O)C(C)(C)C)ccc4[nH]3)CC2)CC1 — H3K79me2 level ratio (human DOT1L R231Q; inhibitor, western blot, refers to: H3K79me2 over histone H3; H460 DOT1L R231Q; concentration not given; relative to: cpd over SGC0946): 0.944
O=C(/C=C/c1ccc2c(=O)n(Cc3ccc(Cl)cc3)cnc2c1)NO — IC50 (histone deacetylase; enzyme activity, inhibitor; HeLa nuclear extract): 0.041 to 0.044 µM
C=C[C@@]1(C)CC(=O)[C@]2(O)[C@@]3(C)[C@@H](O)CCC(C)(C)[C@@H]3[C@H](O)[C@H](OC(C)=O)[C@@]2(C)O1 — EC50 (RXFP4 (human); cAMP level, agonist; CHO-RXFP4 cells; approximate): ~10 µM
Cc1nnc2sc(C(=O)NCc3ccc(S(=O)(=O)C(F)(F)F)cc3)c(N)c2c1C — Ki (off-target panel; radioligand binding; all targets except adenosine transporter): > 30 µM
CC(C)(C)c1cc(C(C)(C)C)c(NC(=O)c2c[nH]c3ccccc3c2=O)cc1O — CFTR activity (CFTR S1251N human; short-circuit current, potentiator; CFBE; 14.44 µM, with: forskolin 20 µM; relative to: PKA-activated wild type): 68.1 ± 2.1%
COC(=O)c1ccc(O)c(O)c1 — CD value (NAD(P)H quinone oxidoreductase, mouse; enzyme induction, inducer; Hepa-1c1c7; concentration doubling activity): > 20 µM
COC1(OC)CCN(CCCN(C[C@H]2O[C@@H](n3cnc4c(N)ncnc43)[C@H](O)[C@@H]2O)C2CCN(Cc3nc4cc(NC(=O)C(C)(C)C)ccc4[nH]3)CC2)CC1 — H3K79me2 level ratio (human DOT1L R231Q; inhibitor, western blot, refers to: H3K79me2 over histone H3; H460 DOT1L R231Q; concentration not given; relative to: cpd over SGC0946): 1.02
MSYLH-OH — conversion to cyclic peptide (cytochrome P450 Blt (Micromonospora sp. MW-13); substrate, LC-MS; peptide; overnight, 30 °C, P450 0.5 µM, with: NADH 2 mM): 15%
CC1CCN(C(=O)CN(C[C@H]2O[C@@H](n3cnc4c(N)ncnc43)[C@H](O)[C@@H]2O)C2CCN(Cc3nc4ccc(NC(=O)C(C)(C)C)cc4[nH]3)CC2)CC1 — H3K79me2 level ratio (human DOT1L R231Q; inhibitor, western blot, refers to: H3K79me2 over histone H3; H460 DOT1L R231Q; concentration not given; relative to: cpd over SGC0946): 1.33
O=C(NO)c1ccc(NC(=O)[C@@H](NC(=O)c2ccc3ccccc3c2)c2ccccc2)cc1 — IC50 (HDAC (HeLa nuclear extract); enzyme activity, inhibitor): 0.0143 ± 0.0009 µM
COc1cc(C=O)cc(OC)c1O — lowest inhibitory concentration (UGT (rat); p-NP glucuronidation, inhibitor; rat liver microsomes): ≥ 0.01 µM
O=C(O)C1=CC=CC(O)C1O (stereo not drawn) — EC50 (rhodopsin wild type-Rluc fusion; reporter gene; HEK293; 24 h): 1.5 µM

Excerpt of the above:
COC(=O)c1ccc(O)c(O)c1 — CD value (NAD(P)H quinone oxidoreductase, mouse; enzyme induction, inducer; Hepa-1c1c7; concentration doubling activity): > 20 µM
COC1(OC)CCN(CCCN(C[C@H]2O[C@@H](n3cnc4c(N)ncnc43)[C@H](O)[C@@H]2O)C2CCN(Cc3nc4cc(NC(=O)C(C)(C)C)ccc4[nH]3)CC2)CC1 — H3K79me2 level ratio (human DOT1L R231Q; inhibitor, western blot, refers to: H3K79me2 over histone H3; H460 DOT1L R231Q; concentration not given; relative to: cpd over SGC0946): 1.02
MSYLH-OH — conversion to cyclic peptide (cytochrome P450 Blt (Micromonospora sp. MW-13); substrate, LC-MS; peptide; overnight, 30 °C, P450 0.5 µM, with: NADH 2 mM): 15%
